Measurements from different studies.
Lines come from different studies, so protocols differ. ± gives the spread as reported.

COc1cc(-c2oc3cc(O)cc(O)c3c(=O)c2O[C@@H]2O[C@H](CO)[C@@H](O)[C@H](O)[C@H]2OC(=O)c2cc(O)c(O)c(O)c2)ccc1O — EC50 (Influenza A virus; viral replication; MDCK, A/Tern/South Africa/1/61(H5N3)): 2.5 ± 0.019 µM
CCCCCCCCCC(=O)OCC1OC(n2cc(C)c(=O)[nH]c2=O)CC1N(C)C (stereo not shown) — EC50 (vaccinia virus; viral replication; HEL): > 0.23 µM
Nc1ccn(C[C@@H](CO)OCP(=O)(O)OCCCS(=O)(=O)CCCCCCCCCCCCC2CCC2)c(=O)n1 — EC50 (vaccinia virus; viral replication; HFF, Copenhagen): 25.8 µM
Nc1nc(Nc2ccc(Cl)c(Cl)c2)nn1S(=O)(=O)c1ccc2ccccc2c1 — EC50 (Japanese encephalitis virus; viral replication; Vero 76, SA-14): 3.1 µM
CCOC(=O)C1(Cc2ccccc2)Oc2cc(F)ccc2N(Cc2ccccc2)C1=O (stereo not shown) — EC50 (Xanthomonas oryzae; microbial growth): > 128 µg/mL
CC(C)c1ccc2c(c1)CC[C@H]1[C@](C)(C(=O)OCC#CCN3CCCC3)CCC[C@]21C — EC50 (SARS-CoV-2 pseudovirus; viral replication): 11.1 µM
Oc1cccc(O)c1-c1c2nc(c(-c3c(O)cccc3O)c3ccc([nH]3)c(-c3c(O)cccc3O)c3nc(c(-c4c(O)cccc4O)c4ccc1[nH]4)C=C3)C=C2 — EC50 (vaccinia virus; extracellular enveloped virus; CV-1, IHD-J): 0.7 ± 0.2 µg/mL
Nc1nc(Nc2ccc(Cl)cc2)nn1S(=O)(=O)c1ccc2ccccc2c1 — EC50 (Powassan virus; viral replication; BHK-21, LB): > 7 µM
O=S(=O)(O)c1cccc(-c2c3nc(c(-c4cccc(S(=O)(=O)O)c4Cl)c4ccc([nH]4)c(-c4cccc(S(=O)(=O)O)c4Cl)c4nc(c(-c5cccc(S(=O)(=O)O)c5Cl)c5ccc2[nH]5)C=C4)C=C3)c1Cl — EC50 (vaccinia virus; extracellular enveloped virus; CV-1, IHD-J): 0.7 ± 0.1 µg/mL
COc1cc(-c2oc3cc(O[C@@H]4O[C@@H](C)[C@H](O)[C@@H](O)[C@H]4O)cc(O)c3c(=O)c2O[C@@H]2O[C@H](CO[C@@H]3O[C@@H](C)[C@H](O)[C@@H](O)[C@H]3O)[C@@H](O)[C@H](OC(C)=O)[C@H]2O)ccc1O — EC50 (Influenza A virus; viral replication; MDCK, A/Tern/South Africa/1/61(H5N3)): 1.3 ± 0.025 µM
CCC(NC(=O)NNS(=O)(=O)c1ccc(C)cc1)(C(F)(F)F)C(F)(F)F — EC50 (Mammarenavirus lassaense; viral replication; Vero): > 20 µM
CC(=O)OC1(C)CC(C=C(C)CCC=C(C)C)OC2(C=C(CO)C3CC(=O)C(C)=CC3O2)C1 (stereo not shown) — EC50 (SARS-CoV-2 Omicron BA.5; viral replication, dsRNA staining; Calu-3): 0.7 µM
CC(C)Oc1ccc(-n2cnc3cc(/C=C\c4ccc(C(C)(C)O)cc4)ccc32)cc1 — EC50 (Mammarenavirus lassaense; pseudovirus entry; glycoprotein pseudotyped particles): 0.00094 ± 0.00096 µM
O=S(=O)(O)c1c2ccccc2c(-c2c3nc(c(-c4c5ccccc5c(S(=O)(=O)O)c5ccccc45)c4ccc([nH]4)c(-c4c5ccccc5c(S(=O)(=O)O)c5ccccc45)c4nc(c(-c5c6ccccc6c(S(=O)(=O)O)c6ccccc56)c5ccc2[nH]5)C=C4)C=C3)c2ccccc12 — EC50 (vaccinia virus; extracellular enveloped virus; CV-1, IHD-J): 0.2 ± 0.1 µg/mL
O=c1ccn(C2OC(F)(CO)C(O)C2O)c(=O)[nH]1 (stereo not shown) — EC50 (Lassa virus; Huh-7): 1.47 ± 1.03 µM
CO/C1=C\C(C)=C\[C@@H](C)[C@@H](O)[C@@H](C)C/C(C)=C/C=C/[C@H](OC)[C@@H]([C@@H](C)[C@@H](O)[C@H](C)C(=O)/C=C/[C@H](C)[C@H](O)C(C)C)OC1=O — EC50 (SARS-CoV-2 Omicron BA.1; viral replication, dsRNA staining; Calu-3): 0.0673 µM
C=CCN1C(=O)C(CC=C)(C(=O)OCC)Oc2cc(F)ccc21 (stereo not shown) — EC50 (Xanthomonas oryzae pv. oryzicola; bacterial growth): > 128 µg/mL
CC(NC(=O)NNS(=O)(=O)c1ccc(OC(F)F)cc1)(C(F)(F)F)C(F)(F)F — EC50 (Mammarenavirus machupoense; viral replication; Vero): 0.3 µM
CC(NC(=O)Nc1ccc(Br)cc1)c1c(-n2cccc2)sc2c1CCCC2 (stereo not shown) — EC50 (MERS-CoV; viral replication; Vero; 24 h): 0.95 µM
O=S(=O)(O)c1cccc(-c2c3nc(c(-c4cccc(S(=O)(=O)O)c4F)c4ccc([nH]4)c(-c4cccc(S(=O)(=O)O)c4F)c4nc(c(-c5cccc(S(=O)(=O)O)c5F)c5ccc2[nH]5)C=C4)C=C3)c1F — EC50 (vaccinia virus; extracellular enveloped virus; CV-1, IHD-J): 1.1 ± 0.5 µg/mL
Cc1ccc(NS(=O)(=O)c2c(C(=O)N3CCCCCC3)c(C)n(C)c2C)c(Cl)c1 — EC50 (Vaccinia virus; viral replication): 0.15 to 1.5 µM
CCN1CCC(CN2c3ccccc3Sc3ccccc32)C1 (stereo not shown) — EC50 (SARS coronavirus; Vero 76, Urbani): 13.1 ± 8.8 µM
C#CCN1C(=O)C(CC#C)(C(=O)OCC)Oc2ccccc21 (stereo not shown) — EC50 (Xanthomonas oryzae; microbial growth): > 128 µg/mL
CC[C@H](C)[C@H](NC(C)=O)C(=O)N[C@@H](CCC(=O)O)C(=O)N[C@@H](CCC(=O)O)C(=O)N[C@H](C(=O)N[C@@H](CCC(N)=O)C(=O)N[C@@H](CCCCN)C(=O)N[C@@H](CCCCN)C(=O)N[C@H](C(=O)N[C@@H](CCC(=O)O)C(=O)N[C@@H](CCC(=O)O)C(=O)N[C@H](C(=O)N[C@@H](CCC(N)=O)C(=O)N[C@@H](CCCCN)C(=O)N[C@@H](CCCCN)C(=O)N[C@H](C(=O)N[C@@H](CCC(=O)O)C(=O)N[C@@H](CCC(=O)O)C(=O)N[C@H](C(=O)N[C@@H](CCC(N)=O)C(=O)N[C@@H](CCCCN)C(=O)N[C@@H](CCCCN)C(=O)N[C@H](C(=O)N[C@@H](CCC(=O)O)C(=O)N[C@@H](CCC(=O)O)C(=O)N[C@H](C(=O)N[C@@H](CCC(N)=O)C(=O)N[C@@H](CCCCN)C(=O)N[C@@H](CCCCN)C(=O)N[C@H](C(=O)N[C@@H](CCC(=O)O)C(=O)N[C@@H](CCC(=O)O)C(=O)N[C@H](C(=O)N[C@@H](CCC(N)=O)C(=O)N[C@@H](CCCCN)C(=O)N[C@@H](CCCCN)C(=O)NCCC(=O)N[C@@H](CCCCNC(C)=O)C(N)=O)[C@@H](C)CC)[C@@H](C)CC)[C@@H](C)CC)[C@@H](C)CC)[C@@H](C)CC)[C@@H](C)CC)[C@@H](C)CC)[C@@H](C)CC)[C@@H](C)CC — EC50 (MERS-CoV pseudovirus; viral entry): > 40 µM
CCCC1(CN2c3ccccc3Sc3ccccc32)CCN(CC)C1 (stereo not shown) — EC50 (SARS coronavirus; Vero 76, Urbani): 10.8 ± 6.7 µM
COc1cc(-c2oc3cc(O[C@@H]4O[C@@H](C)[C@H](O)[C@@H](O)[C@H]4O)cc(O)c3c(=O)c2O[C@@H]2O[C@H](CO)[C@@H](O)[C@H](O)[C@H]2OC(=O)c2cc(O)c(O)c(O)c2)ccc1O — EC50 (Influenza A virus; viral replication; MDCK, A/Tern/South Africa/1/61(H5N3)): 166.2 ± 0.76 µM
CONC(=O)[C@H]1[C@@H](O)[C@@]2(O)c3c(OC)cc(OC)cc3O[C@@]2(c2ccc(OC)cc2)[C@@H]1c1ccccc1 — EC50 (Lassa virus; viral replication; mouse hepatocytes): 0.0361 µM
CCC[C@H](NC(=O)[C@H](CC(C)C)NC(=O)OCc1ccccc1)C(=O)C(=O)NCc1ccccn1 — EC50 (SARS coronavirus; viral replication; Vero 76; 96 h): 1.06 ± 0.14 µM
COc1cc(-c2oc3cc(O[C@@H]4O[C@@H](C)[C@H](O)[C@@H](O)[C@H]4O)cc(O)c3c(=O)c2O[C@@H]2O[C@H](COC(=O)c3cc(O)c(O)c(O)c3)[C@@H](O)[C@H](O)[C@H]2OC(=O)c2cc(O)c(O)c(O)c2)ccc1O — EC50 (Influenza A virus; viral replication; MDCK, A/Tern/South Africa/1/61(H5N3)): 161.6 ± 0.57 µM
COc1c(CNC(=O)c2cc(C3CC3)nn2C)cccc1OC(F)(F)F — EC50 (swine influenza virus; viral replication; MDCK, SIV/SK wild type): 0.025 µM
C1CCCCCC2(CCCCC1)OOCCCOO2 — EC50 (Japanese encephalitis virus; replicon RNA replication, firefly luciferase reporter; BHK (JEV replicon); 72 h): 14 µM

A few entries again:
CCCCCCCCCC(=O)OCC1OC(n2cc(C)c(=O)[nH]c2=O)CC1N(C)C (stereo not shown) — EC50 (vaccinia virus; viral replication; HEL): > 0.23 µM
Nc1ccn(C[C@@H](CO)OCP(=O)(O)OCCCS(=O)(=O)CCCCCCCCCCCCC2CCC2)c(=O)n1 — EC50 (vaccinia virus; viral replication; HFF, Copenhagen): 25.8 µM
